Measured values of several laboratories.
A part holds a random share of what one study measured.

Set 1 — technique: protein binding microarray; molecule type: double-stranded DNA, one strand shown; medium: in vitro; tested at: not given; relative to: not given; direction: higher = stronger binding; quantity: E-score
Target: Histone acetyltransferase KAT6A, both winged helices, GST fusion (KAT6A, Homo sapiens, UniProt Q92794, residues 1-181)
Setting: 8-mer, flanks averaged, mean of 2 arrays, mostly near background
Construct (chain): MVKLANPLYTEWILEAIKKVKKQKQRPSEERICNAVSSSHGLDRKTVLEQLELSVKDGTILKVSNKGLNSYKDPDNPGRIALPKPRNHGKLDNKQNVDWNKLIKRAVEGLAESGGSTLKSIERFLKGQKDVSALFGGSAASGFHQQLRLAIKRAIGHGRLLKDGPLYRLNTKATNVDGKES
Sequence = CAAAATAG; value = -0.189
Sequence = TCTGCTCA; value = -0.172
Sequence = CCGGCGAA; value = 0.256
Sequence = ATTGAGAA; value = -0.103
Sequence = CCAGAACA; value = -0.208

Set 2 — technique: protein-binding microarray; molecule type: double-stranded DNA, one strand shown; medium: in vitro; tested at: not given; direction: higher = stronger binding; quantity: E-score
Target: Transcriptional repressor CTCF (CTCF, Homo sapiens, UniProt P49711, residues 1-727, full length assumed)
Sequence of UniProt P49711 (whole entry, looked up): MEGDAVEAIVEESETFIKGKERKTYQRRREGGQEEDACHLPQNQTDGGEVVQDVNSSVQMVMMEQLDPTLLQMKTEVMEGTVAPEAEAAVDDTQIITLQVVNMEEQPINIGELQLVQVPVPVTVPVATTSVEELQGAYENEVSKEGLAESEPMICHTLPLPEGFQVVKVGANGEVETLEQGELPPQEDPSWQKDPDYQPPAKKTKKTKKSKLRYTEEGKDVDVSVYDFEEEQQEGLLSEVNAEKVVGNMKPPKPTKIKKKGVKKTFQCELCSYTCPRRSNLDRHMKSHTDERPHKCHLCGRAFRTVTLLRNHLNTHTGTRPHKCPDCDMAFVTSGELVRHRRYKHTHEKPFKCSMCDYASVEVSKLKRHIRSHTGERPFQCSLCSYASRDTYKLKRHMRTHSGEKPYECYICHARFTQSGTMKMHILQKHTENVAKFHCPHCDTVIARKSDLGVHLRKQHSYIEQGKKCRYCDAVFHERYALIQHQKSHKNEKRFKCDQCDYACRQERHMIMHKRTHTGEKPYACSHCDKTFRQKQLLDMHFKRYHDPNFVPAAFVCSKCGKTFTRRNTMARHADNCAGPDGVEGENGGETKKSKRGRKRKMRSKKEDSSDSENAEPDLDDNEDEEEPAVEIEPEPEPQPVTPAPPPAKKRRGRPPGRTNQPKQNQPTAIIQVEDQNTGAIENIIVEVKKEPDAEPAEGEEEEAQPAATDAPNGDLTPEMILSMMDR
Setting: k-mer, scored over probes, only values ≥0.25
Sequence = ATTACATG; value = 0.306
Sequence = GTAATATA; value = 0.371
Sequence = TAACACTA; value = 0.302
Sequence = CATATATG; value = 0.341
Sequence = AACGTATA; value = 0.272
Sequence = ACGCGCTA; value = 0.355

Set 3 — technique: universal PBM; molecule type: double-stranded DNA, one strand shown; medium: in vitro; tested at: 600 nM; direction: higher = stronger binding; quantity: E-score
Target: Sal-like protein 4, full length isoform A (SALL4, Homo sapiens, UniProt Q9UJQ4, residues 1-1053)
Sequence of UniProt Q9UJQ4 (whole entry, looked up): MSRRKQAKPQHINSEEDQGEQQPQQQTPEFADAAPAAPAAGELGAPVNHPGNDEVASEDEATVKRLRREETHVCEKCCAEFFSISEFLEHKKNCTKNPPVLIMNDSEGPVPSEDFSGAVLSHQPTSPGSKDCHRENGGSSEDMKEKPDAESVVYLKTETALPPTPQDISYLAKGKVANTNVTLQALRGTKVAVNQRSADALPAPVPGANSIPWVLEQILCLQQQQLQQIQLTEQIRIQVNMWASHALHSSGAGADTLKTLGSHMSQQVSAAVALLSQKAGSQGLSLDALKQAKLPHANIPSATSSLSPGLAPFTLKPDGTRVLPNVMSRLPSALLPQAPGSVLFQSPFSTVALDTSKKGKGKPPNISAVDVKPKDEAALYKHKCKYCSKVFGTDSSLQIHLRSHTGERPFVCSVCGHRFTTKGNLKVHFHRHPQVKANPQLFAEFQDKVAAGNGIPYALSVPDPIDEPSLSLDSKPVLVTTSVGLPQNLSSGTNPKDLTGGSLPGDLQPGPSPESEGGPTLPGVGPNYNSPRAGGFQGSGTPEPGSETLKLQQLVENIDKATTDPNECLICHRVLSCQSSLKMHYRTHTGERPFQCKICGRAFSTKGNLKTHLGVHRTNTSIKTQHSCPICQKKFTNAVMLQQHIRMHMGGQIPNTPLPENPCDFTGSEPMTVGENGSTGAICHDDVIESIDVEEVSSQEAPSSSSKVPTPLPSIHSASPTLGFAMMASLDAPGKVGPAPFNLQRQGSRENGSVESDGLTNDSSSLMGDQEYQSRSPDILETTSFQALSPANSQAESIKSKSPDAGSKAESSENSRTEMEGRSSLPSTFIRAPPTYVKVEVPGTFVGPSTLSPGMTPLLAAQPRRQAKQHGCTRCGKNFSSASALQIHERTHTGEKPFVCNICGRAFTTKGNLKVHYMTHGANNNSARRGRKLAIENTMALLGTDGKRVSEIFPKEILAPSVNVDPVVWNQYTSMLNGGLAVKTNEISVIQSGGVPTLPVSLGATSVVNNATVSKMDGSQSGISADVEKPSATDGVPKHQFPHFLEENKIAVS
Setting: 8-mer, flanks averaged, mean of replicates
Sequence = AGTCCTTA; value = 0.0787
Sequence = AGGTGCTG; value = -0.247
Sequence = GTATCTGA; value = 0.0462
Sequence = ATCCCGCA; value = -0.0633
Sequence = ATAAACGA; value = 0.36
Sequence = GATCGATC; value = -0.214

Further values, each from its own experiment
Molecule = PhoQ, residues 284 288 289 292 302 303 ALVSVA; target = PhoP, residues 12 14 15 18 19 VQALL (Escherichia coli, UniProt P23836); test = Sort-seq, refers to: YFP reporter; system = E. coli; setting = PhoQ-PhoP variant library, with: 10 µM Mg2+; scale = relative to: high Mg2+ state, higher = stronger signaling; quantity = fold induction; value = 16.6

Some of these lines once more (set 3):
Sequence = ATAAACGA; value = 0.36
Sequence = GATCGATC; value = -0.214
Sequence = GTATCTGA; value = 0.0462
